{"data": "Experimental data pooled from the literature", "note": "Protocols differ between the studies behind these lines."}
{"SMILES": "C=CC(=O)Nc1cc(Nc2nccc(-c3cn(C)c4ccccc34)n2)c(OC)cc1N(C)CCN(C)C", "assay": "measured: Anemia grade ≥3", "test system": "EGFR-mutant MET-altered NSCLC", "setting": "oral, study", "endpoint": "patients with treatment-related AEs", "result": "0%"}
{"SMILES": "COc1cc2nccc(Oc3ccc(NC(=O)c4cc5c(n(-c6ccccc6)c4=O)CCCC5=O)nc3)c2cc1OC", "assay": "CTCAE", "test system": "patients with relapsed/refractory AML", "setting": "oral, 10 mg once daily", "endpoint": "patients with TEAEs grade ≥3", "result": "85.7%"}
{"SMILES": "CC(C)C[C@H](NC(=O)CNC(=O)c1cc(Cl)ccc1Cl)B(O)O", "assay": "measured: Hypokalaemia, all grades", "test system": "newly diagnosed multiple myeloma patients", "setting": "oral, dose not given, maintenance phase, new onset, cycle 17 or later", "endpoint": "patients with adverse event", "result": "11%"}
{"SMILES": "Cc1cc(NC2CCN(C(=O)OC3CCN(C(=O)/C=C/CN(C)C)C3)CC2)n2ncc(C(C)C)c2n1 (stereo not shown)", "assay": "Phase I dose escalation CTCAE v4.0, measured: maculo-papular rash", "test system": "patients with advanced solid tumours", "setting": "dose not given, TIW dosing grade 3 or higher", "endpoint": "patients with adverse event", "result": "0%"}
{"SMILES": "COc1cc(Nc2ncc3c(n2)-c2ccc(Cl)cc2C(c2c(F)cccc2OC)=NC3)ccc1C(=O)O", "test system": "cancer patients", "setting": "oral, dose not given, all grades any attribution, added: pembrolizumab", "endpoint": "patients with skin hyperpigmentation", "result": "4%"}
{"SMILES": "CNC(=O)c1ccc(-c2cnc3ncc(Cc4ccc5ncccc5c4)n3n2)cc1F", "assay": "measured: Pruritus, all grades", "test system": "cancer patients", "setting": "oral, 600 mg twice daily, other expansion cohort, any causality", "endpoint": "patients with adverse event", "result": "0%"}
{"SMILES": "COc1ccc([C@@H](O)c2cc(-c3ncnc4cc(N5CCOCC5)ccc34)c(F)cc2Cl)nn1", "assay": "measured: Fatigue", "test system": "locally advanced rectal cancer patients", "setting": "dose not given, all dose groups, added: capecitabine plus radiotherapy", "endpoint": "patients with drug-related AE", "result": "32%"}
{"SMILES": "Cc1cc(-c2nnc(N)nc2-c2ccc(F)cc2)cc(Cl)n1", "assay": "measured: Fatigue", "test system": "other solid tumours, post-IO", "setting": "oral, 100 mg once daily, all grades", "endpoint": "patients with treatment-related AE", "result": "23.8%"}
{"SMILES": "CCOc1c([C@H](C)n2nc(C)c3c(N)ncnc32)cc(Cl)c(F)c1[C@@H]1CNC(=O)C1", "assay": "measured: QRS >100 to ≤110 ms", "test system": "previously treated B-cell malignancy", "setting": "oral, 15 mg once daily, baseline below thresholds", "endpoint": "patients", "result": "0%"}
{"SMILES": "C[C@@H](Nc1cc(F)cc(F)c1)c1cc(C(=O)N(C)C)cc2c(=O)cc(N3CCOCC3)oc12", "assay": "measured: Nausea", "test system": "advanced solid tumour patients", "setting": "oral, dose not given, dose finding", "endpoint": "patients discontinuing for AE", "result": "1.6%"}
{"SMILES": "C[C@@H](c1ccc2nccn2c1)n1nnc2ncc(-c3cnn(C)c3)nc21", "assay": "measured: Fatigue grade ≥3", "test system": "EGFR-mutant MET-altered NSCLC", "setting": "oral, study", "endpoint": "patients with treatment-related AEs", "result": "0%"}
{"SMILES": "NC(=O)N1c2ccccc2C=Cc2ccccc21", "test system": "male patients", "setting": "oral, dose not given, on-treatment adverse events", "endpoint": "patients with Fatigue", "result": "27%"}
{"SMILES": "O=C(Nc1nc2cccc(-c3ccc(CN4CCS(=O)(=O)CC4)cc3)n2n1)C1CC1", "assay": "measured: angina pectoris", "test system": "rheumatoid arthritis patients", "setting": "oral, 100 mg twice daily, 4 weeks", "endpoint": "patients with TEAE", "result": "0%"}
{"note": "Some of these lines once more:"}
{"SMILES": "O=C(Nc1nc2cccc(-c3ccc(CN4CCS(=O)(=O)CC4)cc3)n2n1)C1CC1", "assay": "measured: angina pectoris", "test system": "rheumatoid arthritis patients", "setting": "oral, 100 mg twice daily, 4 weeks", "endpoint": "patients with TEAE", "result": "0%"}
